Results pooled from the literature.
Numbers after ± are the reported error.

Compound	assay	test system	setting	quantity	value
CC[C@H](C)[C@H](NC(=O)[C@H](Cc1ccccc1)NC(=O)[C@H](CCC(=O)O)NC(=O)[C@H](CCCNC(=N)N)NC(=O)[C@H](C)NC(=O)[C@H](C)NC(=O)[C@H](CCC(N)=O)NC(=O)[C@H](CCC(=O)O)NC(=O)[C@H](CCC(=O)O)NC(=O)[C@H](CC(C)C)NC(=O)[C@H](Cc1ccc(O)cc1)NC(=O)[C@H](CO)NC(=O)[C@H](CO)NC(=O)[C@@H](NC(=O)[C@H](CC(=O)O)NC(=O)[C@H](CO)NC(=O)[C@@H](NC(=O)[C@H](Cc1ccccc1)NC(=O)[C@@H](NC(=O)CNC(=O)[C@H](CCC(=O)O)NC(=O)[C@H](C)NC(=O)CCc1cnc[nH]1)[C@@H](C)O)[C@@H](C)O)C(C)C)C(=O)N[C@@H](C)C(=O)N[C@@H](Cc1c[nH]c2ccccc12)C(=O)N[C@@H](CC(C)C)C(=O)N[C@H](C(=O)N[C@@H](CCCNC(=N)N)C(=O)NCC(=O)N[C@@H](CCCNC(=N)N)C(=O)N[C@@H](CCCCNC(=O)COCCOCCNC(=O)COCCOCCNC(=O)CC[C@H](NC(=O)CCCCCCCCCCCCCCCCC(=O)O)C(=O)O)C(=O)NCC(=O)NCC(=O)N[C@@H](CO)C(=O)N[C@@H](CCCCNC(=O)[C@H](CCCCNC(=O)[C@H](CCCCNc1c(NCCCCCN(O)C(=O)CCC(=O)NCCCCCN(O)C(=O)CCC(=O)NCCCCCN(O)C(C)=O)c(=O)c1=O)Nc1c(NCCCCCN(O)C(=O)CCC(=O)NCCCCCN(O)C(=O)CCC(=O)NCCCCCN(O)C(C)=O)c(=O)c1=O)NC(=O)[C@H](CCCCNc1c(NCCCCCN(O)C(=O)CCC(=O)NCCCCCN(O)C(=O)CCC(=O)NCCCCCN(O)C(C)=O)c(=O)c1=O)Nc1c(NCCCCCN(O)C(=O)CCC(=O)NCCCCCN(O)C(=O)CCC(=O)NCCCCCN(O)C(C)=O)c(=O)c1=O)C(=O)O)C(C)C [zirconium-89 labelled]	ex vivo gamma counting	male Sprague-Dawley rats, lung	intravenous, 1 nmol, 24 h	tissue uptake	0.606 %ID/g
COc1cc2c(Oc3ccc4[nH]c(C)cc4c3F)ccnc2cc1OCC1(N)CC1	–	paediatric refractory sarcoma patients	10 mg	ALP elevation incidence	25%
COc1ncnn2ccc(-c3cnc4nc(C)n(Cc5nnc([C@@H](C)F)o5)c4c3)c12	–	human	oral, dose not given, grade 4	patients with any adverse reaction	14.3%
CCc1ccc(CC/C=C/c2ccc3c(c2)C(=O)CC3)cc1	–	Sprague-Dawley rat, male, blood	oral, 30 mg/kg/day, 14 days	hematocrit	47.8%
O=S(=O)(Nc1ccccc1)c1ccc(NC(=S)Nc2ccccc2)cc1	measured: RDW	male mouse, blood	oral, 5 mg/kg daily, 14 days	blood cell fraction	16.2%
CC(C)C(=O)OC[C@H]1O[C@@H](n2ccc(NO)nc2=O)[C@H](O)[C@@H]1O	–	rat placenta dialysate	5 ng/mL, 6 h, 10 °C, low QC concentration, together with: NHC 25 ng/mL	autosampler stability	102 ± 3.15%
O=C1Nc2cc3[nH]nc(-c4ccncc4)c3cc2CN1Cc1ccccc1	measured: Asthenia	patients with advanced solid tumours	intravenous, dose not given	patients with grade ≥3 TEAE	7%
NC(=O)c1cccc(-c2cc(OC(=O)NC3CCCCC3)ccc2O)c1	–	mouse	intravenous, 10 mg/kg	volume of distribution	4.6 L/kg
CN1CC[C@@H](c2c(O)cc(O)c3c(=O)cc(-c4ccc(C(F)(F)F)cc4Cl)oc23)[C@@H]1CO	measured: rectal abscess	AML	oral, 200 mg, grade 3 to 4, intermittent dosing	patients with adverse event	10%
C[C@]1(CO)Cc2ncn(-c3ccc(C#N)c(Cl)c3)c2C(=O)O1	–	human, Chinese or Japanese, plasma	single rising dose, range of means	apparent terminal t1/2	4.43 to 6.13 h
C[C@@H]1OC(=O)NN=C1c1ccc(-c2ccc(F)cc2)c(C(F)(F)F)c1	phase I trial, measured: Cough worst grade 1	human patients	5 mg loading then 0.25 mg daily	patients with adverse event	0%
COc1ccc(-c2c(-c3ccc(C#N)c(F)c3)nc(N3CCC(N)CC3)n(C)c2=O)cc1F	measured: ≥1 grade 3-4 TRAE	human patients	oral, dose not given, dose escalation	grade 3-4 TRAE incidence	22%
CCc1nc(C(N)=O)c(Nc2ccc(N3CCC(N4CCN(C)CC4)CC3)c(OC)c2)nc1NC1CCOCC1	–	patients, plasma	oral, 300 mg once daily, cycle 1 day 15, median	Cmin	1080 ng/mL

Excerpt of the above:
Compound	assay	test system	setting	quantity	value
NC(=O)c1cccc(-c2cc(OC(=O)NC3CCCCC3)ccc2O)c1	–	mouse	intravenous, 10 mg/kg	volume of distribution	4.6 L/kg
